# Measurements gathered from unrelated publications.
# Each line is one published result; not all experiments were run side by side. ± marks the error that the study gave.
Structure (SMILES),cell line,assay,setting,IC50
Cc1ccc(C(C)C)cc1.Cc1ccc(C(C)C)cc1.Cc1ccc(C(C)C)cc1.Cc1ccc(C(C)C)cc1.O=S(=O)(O)C(F)(F)F.O=S(=O)(O)C(F)(F)F.O=S(=O)(O)C(F)(F)F.O=S(=O)(O)C(F)(F)F.c1ccc2c3c4ccccc4c(c2c1)-c1cn(nn1)-c1cc[n+](cc1)[Ru-]1[O]c2c4ccccc4c4c5c(c6ccccc6c(c25)=[O+]1)=[O+][Ru-]([O]4)[n+]1ccc(cc1)-n1cc(nn1)-c1c2ccccc2c(c2ccccc12)-c1cn(nn1)-c1cc[n+](cc1)[Ru-]1[O]c2c4ccccc4c4c5c(c6ccccc6c(c25)=[O+]1)=[O+][Ru-]([O]4)[n+]1ccc(cc1)-n1cc-3nn1,HCT-15,"cell growth or viability, MTT",24 h,8.2 µM
N#Cc1cncc(N2Cc3cn(Cc4ccc(F)cc4)nc3C2)n1,HEK293 expressing GluA1 and GluA2,"glutamate excitotoxic cell death, CellTox Green",together with: glutamate,0.771 µM
O=C(NCc1cc(F)cc(F)c1)[C@@]1(O)CCN(c2ccc3[nH]ccc3c2)C1=O,OVXF1023,colony formation,,0.064 µM
CCN(C(=O)c1cc(F)ccc1Oc1nncnc1N1CCC2(C1)CN([C@H](CCCN(C)CCOC)C(C)C)C2)C(C)C,"MOLM-14 (KMT2A-AF9, FLT3-ITD)","mRNA level, QuantiGene multiplex, measured: FLT3",,0.301 ± 0.081 µM
CC(CCC(=O)OCc1cccc(CN(C(=O)OCc2ccc(B3OC(C)(C)C(C)(C)O3)cc2)[c-]2cccc2)c1)C1CCC2C3C(O)CC4CC(O)CCC4(C)C3CCC12C.[Fe+2].c1cc[cH-]c1 (stereo not drawn),BL2,"cell growth or viability, MTT",48 h,46 µM
CCn1c(-c2ccccc2)cs/c1=N/N=C(\C)c1c(O)c2ccccc2oc1=O,human Skin fibroblast,"cell growth or viability, MTT",48 h,> 100 µM
CC(=O)Nc1ccnc(N2Cc3cnn(Cc4ccc(F)cc4)c3C2)n1,HEK293 expressing GluA1 and GluA2,"glutamate excitotoxic cell death, CellTox Green",together with: glutamate,0.04 µM
CCn1nccc1C1CCCN1S(=O)(=O)c1cc(C)c(C)cc1C (stereo not drawn),human PBMC monocytes,phagocytosis of anti-D RBCs,,25.5 ± 6.7 µM
CN1CCC(N[C@@H]2CCc3[nH]c4c(C(N)=O)ccc(-c5ccccc5Cl)c4c3C2)CC1,SGC-7901,cell growth or viability,,0.0133 µM
CO[C@@H](C[C@H]1C(C)=CC[C@@H]2[C@]3(C)C[C@H](O[C@@H]4O[C@@H](C)[C@H](OC(=O)c5cccc(O)c5)[C@@H](O)[C@H]4O)[C@@H](O)C(C)(C)[C@H]3CC[C@]21C)[C@H](N)C(=O)O,THP-29,"cell viability, CCK-8",72 h,6.06 µM
Cc1cnc(Nc2ccc3c(c2)CCN(C(=O)/C=C/C(=O)c2ccc(Cl)cc2)C3)nc1-c1cnn(C(C)C)c1,HCC70,"cell growth or viability, MTT",48 h,0.36 µM
CCOc1cncc(-c2ccc(NC(=O)C3(c4ccnc(NS(=O)(=O)C5CC5)n4)CCOCC3)nc2)n1,SD-1,"cell proliferation, CellTiter-Glo","72 h, lymphoid haematological cancer",0.061 µM
Cn1ncc(-c2ccc3c(=O)[nH]nc(CN)c3c2)c1-c1c(F)c(Cl)cc(OC2CC2)c1C#N,HCC95,"cell viability, inhibitor, CellTiter-Glo","120 h, baseline-subtracted",2.21 µM
COc1cc(-c2cc(C(C)=O)n3ccccc23)c(OC)cc1C(=O)N1CCOCC1,MV4-11,"cell growth or viability, ATP luminescence",,3.9 µM
O=C(c1cccc(N2Cc3cn(Cc4ccc(F)cc4)nc3C2)c1)N1CCCC1,HEK293 expressing GluA1 and GluA2,"glutamate excitotoxic cell death, CellTox Green",together with: glutamate,1.15 µM
NCCOc1cc(NC(=O)c2cc(Cl)cc(C(=O)Nc3cc(OCCN)c4ccccc4n3)n2)nc2ccccc12,HT-1080,"cell growth or viability, ATP luminescence",72 h,1.8 µM
NC(=O)c1ccc(-c2ccccc2Cl)c2c3c([nH]c12)CCC(N)C3 (stereo not drawn),SGC-7901,cell growth or viability,96 h,0.0399 µM
CNS(=O)(=O)Nc1nccc(Cc2c(C)c3ccc(Oc4ncccc4F)cc3oc2=O)c1F,MJ (G11),"cell viability, CellTiter-Glo",7 days,> 1 µM
CC(=O)NCCOCCOCCOCCNC(=O)c1cc(C(=O)N2CCNCCNCCNCC2)c(O)c(C(=O)N2CCNCCNCCNCC2)c1,2C6 normal pancreas,"cell viability, MTT",24 h,> 1000 µM
Nc1nnc(-c2ccccc2O)cc1N1CC2CCC(C1)N2c1ccnc(C#CCCN2CCCCCC2)c1,NCI-H1944,"cell growth or viability, ATP luminescence",7 days,0.0261 µM
O=C(O)c1cccc(N2Cc3cnn(Cc4ccc(F)cc4)c3C2)c1,HEK293 expressing GluA1 and GluA2,"glutamate excitotoxic cell death, CellTox Green",together with: glutamate,1.05 µM
CCCN1C(=O)CS/C1=N\N=C\c1cccc2cc3ccccc3nc12,SK-BR-3,"cell growth or viability, MTT",48 h,> 50 µM
Fc1ccc(Cn2ncc3c2CN(c2ccccc2)C3)cc1,HEK293 expressing GluA1 and GluA2,"glutamate excitotoxic cell death, CellTox Green",together with: glutamate,0.932 µM
CCOC(=O)/C=C1\S/C(=N\N=C\c2cccc3cc4ccccc4nc23)N(c2ccccc2)C1=O,SK-BR-3,"cell growth or viability, MTT",48 h,> 50 µM
O=C(NC1CCCCC1)c1cncc(N2Cc3cn(Cc4ccc(F)cc4)nc3C2)n1,HEK293 expressing GluA1 and GluA2,"glutamate excitotoxic cell death, CellTox Green",together with: glutamate,0.046 µM
CC(C)c1ccc(N(C)c2ccc3c(c2)OCC[C@H]3CNc2cnccc2C(=O)O)cc1,NCI-H2023,"cell growth or viability, ATP luminescence",7 days,0.00303 µM
CN(C)C(=O)c1cccc(N2Cc3cn(Cc4cc(Cl)cc(Cl)c4)nc3C2)c1,HEK293 expressing GluA1 and GluA2,"glutamate excitotoxic cell death, CellTox Green",together with: glutamate,0.055 µM
CCn1nc(Cl)c2c1-c1cnc(N)c(c1)O[C@H](C)c1cc(F)ccc1-c1nn(C)cc1C2,Ba/F3 EML4-ALK variant 1 E1210K,cell viability,,0.000625 µM
CN1CCN(C(=O)c2ccnc(N3Cc4cn(Cc5ccc(F)cc5)nc4C3)n2)CC1,HEK293 expressing GluA1 and GluA2,"glutamate excitotoxic cell death, CellTox Green",together with: glutamate,0.02 µM
CNC(=O)c1cc(OC)c(-c2cc(C(C)=O)n3ccccc23)cc1OC,MV4-11,"cell growth or viability, ATP luminescence",,2.84 µM

# A few entries again:
Structure (SMILES),cell line,assay,setting,IC50
O=C(O)c1cccc(N2Cc3cnn(Cc4ccc(F)cc4)c3C2)c1,HEK293 expressing GluA1 and GluA2,"glutamate excitotoxic cell death, CellTox Green",together with: glutamate,1.05 µM
CN1CCC(N[C@@H]2CCc3[nH]c4c(C(N)=O)ccc(-c5ccccc5Cl)c4c3C2)CC1,SGC-7901,cell growth or viability,,0.0133 µM
